Experimental data gathered from unrelated publications.
A part holds a random share of what one study measured. pIC50: −log10 of the molar value.
Sequence of UniProt O94921 (whole entry, looked up): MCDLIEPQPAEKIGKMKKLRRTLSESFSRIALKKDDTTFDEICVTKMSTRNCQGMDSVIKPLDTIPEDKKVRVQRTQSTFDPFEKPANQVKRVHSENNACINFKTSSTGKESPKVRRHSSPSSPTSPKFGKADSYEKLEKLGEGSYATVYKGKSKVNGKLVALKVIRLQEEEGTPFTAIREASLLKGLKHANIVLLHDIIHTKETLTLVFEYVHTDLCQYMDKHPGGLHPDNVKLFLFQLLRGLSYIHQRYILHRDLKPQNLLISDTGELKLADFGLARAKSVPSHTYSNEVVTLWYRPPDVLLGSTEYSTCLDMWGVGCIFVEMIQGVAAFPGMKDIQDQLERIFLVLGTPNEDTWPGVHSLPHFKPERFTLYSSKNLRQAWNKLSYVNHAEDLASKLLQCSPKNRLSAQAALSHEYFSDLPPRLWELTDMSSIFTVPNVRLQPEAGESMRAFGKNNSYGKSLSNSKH
Sequence of UniProt Q9P289 (whole entry, looked up): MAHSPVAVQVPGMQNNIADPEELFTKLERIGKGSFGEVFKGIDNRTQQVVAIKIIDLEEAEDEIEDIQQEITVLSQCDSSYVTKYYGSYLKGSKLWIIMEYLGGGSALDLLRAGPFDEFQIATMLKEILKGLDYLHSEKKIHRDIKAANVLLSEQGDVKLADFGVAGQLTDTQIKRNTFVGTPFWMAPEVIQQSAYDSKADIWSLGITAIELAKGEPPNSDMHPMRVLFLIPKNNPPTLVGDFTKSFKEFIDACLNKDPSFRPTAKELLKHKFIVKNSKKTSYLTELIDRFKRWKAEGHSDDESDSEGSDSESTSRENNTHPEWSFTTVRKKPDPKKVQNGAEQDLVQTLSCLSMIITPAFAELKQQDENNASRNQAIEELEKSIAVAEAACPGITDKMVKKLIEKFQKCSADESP
Sequence of UniProt P10721 (whole entry, unmodified, looked up): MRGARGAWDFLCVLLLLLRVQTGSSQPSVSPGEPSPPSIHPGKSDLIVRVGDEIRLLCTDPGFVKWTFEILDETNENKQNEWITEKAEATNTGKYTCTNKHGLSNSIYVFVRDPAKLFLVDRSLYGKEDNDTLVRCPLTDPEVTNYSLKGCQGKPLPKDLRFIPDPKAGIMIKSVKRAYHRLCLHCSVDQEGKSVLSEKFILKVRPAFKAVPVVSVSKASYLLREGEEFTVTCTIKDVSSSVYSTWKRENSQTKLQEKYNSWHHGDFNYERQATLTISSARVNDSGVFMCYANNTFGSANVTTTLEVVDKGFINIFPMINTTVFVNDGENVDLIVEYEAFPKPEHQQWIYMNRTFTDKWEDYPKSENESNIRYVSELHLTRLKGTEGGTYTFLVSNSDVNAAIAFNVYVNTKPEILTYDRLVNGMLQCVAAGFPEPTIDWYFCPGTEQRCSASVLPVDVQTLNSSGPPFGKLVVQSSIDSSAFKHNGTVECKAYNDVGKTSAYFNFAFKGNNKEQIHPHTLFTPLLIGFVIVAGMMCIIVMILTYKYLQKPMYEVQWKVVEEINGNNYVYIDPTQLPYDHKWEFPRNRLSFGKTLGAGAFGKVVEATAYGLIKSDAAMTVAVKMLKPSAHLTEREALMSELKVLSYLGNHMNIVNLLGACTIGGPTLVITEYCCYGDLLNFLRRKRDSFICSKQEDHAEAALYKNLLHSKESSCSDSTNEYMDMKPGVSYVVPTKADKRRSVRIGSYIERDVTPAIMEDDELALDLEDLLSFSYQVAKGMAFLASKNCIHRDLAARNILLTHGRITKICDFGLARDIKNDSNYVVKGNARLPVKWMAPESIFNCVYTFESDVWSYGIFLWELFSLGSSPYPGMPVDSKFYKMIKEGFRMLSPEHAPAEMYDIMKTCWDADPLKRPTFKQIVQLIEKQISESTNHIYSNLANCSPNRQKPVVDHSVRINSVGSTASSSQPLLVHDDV
Sequence of UniProt P45984 (whole entry, looked up): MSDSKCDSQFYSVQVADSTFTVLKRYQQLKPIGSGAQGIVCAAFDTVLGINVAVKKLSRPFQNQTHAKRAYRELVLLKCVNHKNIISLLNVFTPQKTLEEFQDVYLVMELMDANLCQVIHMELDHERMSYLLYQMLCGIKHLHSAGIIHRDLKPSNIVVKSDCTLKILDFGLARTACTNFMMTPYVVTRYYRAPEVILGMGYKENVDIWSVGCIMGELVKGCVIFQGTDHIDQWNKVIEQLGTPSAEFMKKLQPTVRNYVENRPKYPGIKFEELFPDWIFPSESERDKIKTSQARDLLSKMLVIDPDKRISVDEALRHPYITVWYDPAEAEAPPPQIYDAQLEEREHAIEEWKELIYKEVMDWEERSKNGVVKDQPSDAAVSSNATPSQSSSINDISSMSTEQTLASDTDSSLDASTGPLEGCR
Sequence of UniProt Q96PN8 (whole entry, looked up): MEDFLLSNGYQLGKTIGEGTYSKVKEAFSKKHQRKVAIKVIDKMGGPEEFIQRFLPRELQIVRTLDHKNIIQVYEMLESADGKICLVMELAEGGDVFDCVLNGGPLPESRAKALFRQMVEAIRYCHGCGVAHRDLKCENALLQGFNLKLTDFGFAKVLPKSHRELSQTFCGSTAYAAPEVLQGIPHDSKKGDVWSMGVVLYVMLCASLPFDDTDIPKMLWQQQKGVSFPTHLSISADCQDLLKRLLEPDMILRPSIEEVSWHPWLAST

Sample 1
SMILES: CC[C@@]1(c2cccc(-c3c(F)cncc3OC)c2)C2=C(Nc3n[nH]cc31)[C@H](F)C(C)(C)CC2=O (single isomer, unassigned)
Tested at: 1 µM
target | assay | scale | remaining binding [%]
Phosphatidylinositol 4,5-bisphosphate 3-kinase catalytic subunit alpha isoform (PIK3CA, Homo sapiens, UniProt P42336, Q546K) | kinase binding, KINOMEscan | reference: DMSO control | 63
Casein kinase II subunit alpha' (CSNK2A2, Homo sapiens, UniProt P19784) | kinase binding, KINOMEscan | reference: DMSO control | 79
Serine/threonine-protein kinase TAO2 (TAOK2, Homo sapiens, UniProt Q9UL54) | binding, competition with immobilised ligand |  | 79
Ribosomal protein S6 kinase alpha-4, C-terminal kinase domain (RPS6KA4, Homo sapiens, UniProt O75676) | binding, competition with immobilised ligand |  | 74
Calcium/calmodulin-dependent protein kinase type II subunit delta (CAMK2D, Homo sapiens, UniProt Q13557) | binding, competition with immobilised ligand |  | 98
Serine/threonine-protein kinase 38 (STK38, Homo sapiens, UniProt Q15208) | binding, competition with immobilised ligand |  | 60
Serine/threonine-protein kinase tousled-like 2 (TLK2, Homo sapiens, UniProt Q86UE8) | binding, competition with immobilised ligand |  | 95
Eukaryotic translation initiation factor 2-alpha kinase 1 (EIF2AK1, Homo sapiens, UniProt Q9BQI3) | binding, competition with immobilised ligand |  | 91
Calcium/calmodulin-dependent protein kinase type 1B (PNCK, Homo sapiens, UniProt Q6P2M8) | kinase binding, KINOMEscan | reference: DMSO control | 57
Serine/threonine-protein kinase 26 (STK26, Homo sapiens, UniProt Q9P289) | binding, competition with immobilised ligand |  | 59
Tyrosine-protein kinase ABL1, phosphorylated (ABL1, Homo sapiens, UniProt P00519, T315I) | kinase binding, KINOMEscan | reference: DMSO control | 77
Phosphatidylinositol 4-kinase beta (PI4KB, Homo sapiens, UniProt Q9UBF8) | binding, competition with immobilised ligand |  | 66
Hepatocyte growth factor receptor (MET, Homo sapiens, UniProt P08581) | binding, competition with immobilised ligand |  | 93
cAMP-dependent protein kinase catalytic subunit beta (PRKACB, Homo sapiens, UniProt P22694) | binding, competition with immobilised ligand |  | 84

Sample 2
Target: Fibroblast growth factor receptor 1 (FGFR1, Homo sapiens, UniProt P11362)
Sequence of UniProt P11362 (whole entry, looked up): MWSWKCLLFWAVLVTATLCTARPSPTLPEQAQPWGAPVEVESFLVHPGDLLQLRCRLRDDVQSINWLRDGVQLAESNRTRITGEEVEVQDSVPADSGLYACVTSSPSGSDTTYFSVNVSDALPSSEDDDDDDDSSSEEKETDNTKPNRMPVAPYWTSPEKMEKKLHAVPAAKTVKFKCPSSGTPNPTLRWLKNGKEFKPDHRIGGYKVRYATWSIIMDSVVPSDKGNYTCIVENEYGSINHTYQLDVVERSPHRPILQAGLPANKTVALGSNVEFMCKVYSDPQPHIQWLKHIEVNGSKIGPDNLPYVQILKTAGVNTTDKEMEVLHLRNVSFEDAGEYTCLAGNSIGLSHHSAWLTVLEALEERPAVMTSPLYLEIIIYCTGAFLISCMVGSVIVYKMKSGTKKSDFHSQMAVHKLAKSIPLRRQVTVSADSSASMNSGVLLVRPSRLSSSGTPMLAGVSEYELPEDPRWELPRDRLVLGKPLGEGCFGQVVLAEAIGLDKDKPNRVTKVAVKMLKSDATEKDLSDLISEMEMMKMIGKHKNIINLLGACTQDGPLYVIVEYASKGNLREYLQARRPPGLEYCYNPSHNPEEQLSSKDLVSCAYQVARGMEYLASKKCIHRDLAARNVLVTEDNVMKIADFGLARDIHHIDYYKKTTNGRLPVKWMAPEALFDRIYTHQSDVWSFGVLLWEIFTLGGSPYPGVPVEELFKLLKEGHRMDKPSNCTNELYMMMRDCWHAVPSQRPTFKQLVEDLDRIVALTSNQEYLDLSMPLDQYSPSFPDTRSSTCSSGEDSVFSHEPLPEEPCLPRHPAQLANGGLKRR
Read-out: enzyme activity
Mode: inhibitor
SMILES | pIC50
CNc1ncc2cc(-c3cc(OC)cc(OC)c3Cl)c(=O)n(CCc3ccc(N(C)C(=O)C(C#N)=CC(C)(C)N(C)C)cc3)c2n1 | 8.22
CNc1ncc2cc(-c3cc(OC)cc(OC)c3Cl)c(=O)n(CCc3ccc(N(C)C(=O)C(C#N)=CC(C)(C)N)cc3)c2n1 | 8.70
CNc1ncc2cc(-c3cc(OC)cc(OC)c3Cl)c(=O)n(CCc3ccc(NC(=O)/C(C#N)=C/C(C)(C)NC)cc3)c2n1 | 8.68
CNc1ncc2cc(-c3cc(OC)cc(OC)c3Cl)c(=O)n(CCc3ccc(NC(=O)C(C#N)=CC(C)(C)C)cc3)c2n1 | 8.22
CNc1ncc2cc(-c3cc(OC)cc(OC)c3Cl)c(=O)n(CCc3ccc(NC(=O)C(C#N)=CC(C)(C)N4CCOCC4)cc3)c2n1 | 8.28

Sample 3
Compound: COc1cc(-c2nc3ccc(C(=O)NCCCN(C)C)cc3n2C2CCC2)cc(OC)c1OC
Read-out: binding
Technique: competition with immobilised ligand
Tested at: 1 µM
target | remaining binding [%]
Serine/threonine-protein kinase SIK2 (SIK2, Homo sapiens, UniProt Q9H0K1) | 100
Mitogen-activated protein kinase 9 (MAPK9, Homo sapiens, UniProt P45984) | 92
Tyrosine-protein kinase Srms (SRMS, Homo sapiens, UniProt Q9H3Y6) | 87
Cyclin-dependent kinase 4, with cyclin D3 (CDK4, Homo sapiens, UniProt P11802) | 98
Macrophage colony-stimulating factor 1 receptor (CSF1R, Homo sapiens, UniProt P07333) | 92
Serine/threonine-protein kinase STK11 (STK11, Homo sapiens, UniProt Q15831) | 74
Serine/threonine-protein kinase N2 (PKN2, Homo sapiens, UniProt Q16513) | 100
Mitogen-activated protein kinase kinase kinase 3 (MAP3K3, Homo sapiens, UniProt Q99759) | 100
Cyclin-dependent kinase 14 (CDK14, Homo sapiens, UniProt O94921) | 100
Cyclin-dependent kinase 2 homolog (CRK2, Plasmodium falciparum, UniProt P61075) | 37
Tyrosine-protein kinase ABL1, phosphorylated (ABL1, Homo sapiens, UniProt P00519, F317L) | 38
Mitogen-activated protein kinase 4 (MAPK4, Homo sapiens, UniProt P31152) | 89
Leucine-rich repeat serine/threonine-protein kinase 2 (LRRK2, Homo sapiens, UniProt Q5S007, G2019S) | 97
1-phosphatidylinositol 3-phosphate 5-kinase (PIKFYVE, Homo sapiens, UniProt Q9Y2I7) | 100
Serine/threonine-protein kinase D1 (PRKD1, Homo sapiens, UniProt Q15139) | 100
Mast/stem cell growth factor receptor Kit (KIT, Homo sapiens, UniProt P10721, D816H) | 96
Tyrosine-protein kinase ABL1, phosphorylated (ABL1, Homo sapiens, UniProt P00519, F317I) | 90
Dual specificity mitogen-activated protein kinase kinase 5 (MAP2K5, Homo sapiens, UniProt Q13163) | 76
Serine/threonine-protein kinase PAK 2 (PAK2, Homo sapiens, UniProt Q13177) | 93
Homeodomain-interacting protein kinase 1 (HIPK1, Homo sapiens, UniProt Q86Z02) | 87
Tyrosine-protein kinase ZAP-70 (ZAP70, Homo sapiens, UniProt P43403) | 90
Myosin-IIIa (MYO3A, Homo sapiens, UniProt Q8NEV4) | 100
Bone morphogenetic protein receptor type-2 (BMPR2, Homo sapiens, UniProt Q13873) | 90
Testis-specific serine/threonine-protein kinase 3 (TSSK3, Homo sapiens, UniProt Q96PN8) | 97
Calcium/calmodulin-dependent protein kinase type 1 (CAMK1, Homo sapiens, UniProt Q14012) | 100

Sample 4
SMILES: C[C@@H]1CN(c2ccc(-c3cc(C(=O)NCCOCCOCCOCCOCCOCCOCCNC(=O)/C=C/c4[nH]cc(C(=O)N[C@@H](CC(N)=O)c5ccc(F)c(Cl)c5)c4-c4ccc(Cl)cc4F)ccc3F)cc2NC(=O)c2ccc(F)cc2C(F)(F)F)C[C@H](C)N1C
Read-out: thermal unfolding
Technique: differential scanning fluorimetry
Tested at: 5.5 µM
Direction: higher = more unfolded
WDR5: WD repeat-containing protein 5 (WDR5, Homo sapiens, UniProt P61964)
DCAF1: DDB1- and CUL4-associated factor 1 (DCAF1, Homo sapiens, UniProt Q9Y4B6)
Sequence of UniProt Q9Y4B6 (whole entry, looked up): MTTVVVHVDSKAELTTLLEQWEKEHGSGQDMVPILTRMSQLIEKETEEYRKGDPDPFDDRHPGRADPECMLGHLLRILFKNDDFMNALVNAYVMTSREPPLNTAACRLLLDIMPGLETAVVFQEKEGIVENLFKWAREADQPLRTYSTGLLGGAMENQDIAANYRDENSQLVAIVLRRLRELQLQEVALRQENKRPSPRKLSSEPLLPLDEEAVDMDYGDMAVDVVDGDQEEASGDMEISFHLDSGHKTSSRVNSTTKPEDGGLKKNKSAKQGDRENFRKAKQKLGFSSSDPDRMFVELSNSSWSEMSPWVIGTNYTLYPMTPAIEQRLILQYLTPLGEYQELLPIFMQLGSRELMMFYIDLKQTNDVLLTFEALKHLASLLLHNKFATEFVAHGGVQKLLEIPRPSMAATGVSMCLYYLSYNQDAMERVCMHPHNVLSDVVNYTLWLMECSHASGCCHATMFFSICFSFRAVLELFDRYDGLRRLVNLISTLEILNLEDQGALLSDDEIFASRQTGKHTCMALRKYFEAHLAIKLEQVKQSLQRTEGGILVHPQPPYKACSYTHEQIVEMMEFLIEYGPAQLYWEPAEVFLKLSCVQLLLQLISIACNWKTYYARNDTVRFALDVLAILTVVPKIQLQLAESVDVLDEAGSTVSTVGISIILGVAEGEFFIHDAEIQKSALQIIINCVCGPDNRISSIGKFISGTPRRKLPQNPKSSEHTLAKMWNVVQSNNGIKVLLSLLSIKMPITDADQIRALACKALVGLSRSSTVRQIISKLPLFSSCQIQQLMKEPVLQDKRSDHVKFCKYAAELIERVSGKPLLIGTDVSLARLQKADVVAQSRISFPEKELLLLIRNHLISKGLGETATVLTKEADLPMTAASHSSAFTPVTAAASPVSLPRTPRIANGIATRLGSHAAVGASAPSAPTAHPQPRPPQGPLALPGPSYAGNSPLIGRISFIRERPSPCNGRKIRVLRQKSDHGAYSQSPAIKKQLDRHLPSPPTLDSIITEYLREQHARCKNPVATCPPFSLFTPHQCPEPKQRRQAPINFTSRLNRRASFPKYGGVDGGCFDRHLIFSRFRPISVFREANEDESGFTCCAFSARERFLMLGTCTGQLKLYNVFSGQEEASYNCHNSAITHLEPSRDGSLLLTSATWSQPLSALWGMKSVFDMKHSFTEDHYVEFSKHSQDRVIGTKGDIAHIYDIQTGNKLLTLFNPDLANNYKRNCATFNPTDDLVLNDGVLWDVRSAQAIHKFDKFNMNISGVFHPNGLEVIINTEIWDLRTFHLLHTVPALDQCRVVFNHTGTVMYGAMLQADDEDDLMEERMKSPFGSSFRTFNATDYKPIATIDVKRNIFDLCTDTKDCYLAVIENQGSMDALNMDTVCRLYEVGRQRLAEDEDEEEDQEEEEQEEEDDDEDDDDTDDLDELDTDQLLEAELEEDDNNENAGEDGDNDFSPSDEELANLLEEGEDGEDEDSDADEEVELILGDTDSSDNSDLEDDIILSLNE
target | conditions | SYPRO Orange fluorescence [a.u.]
WDR5 | 68.21 °C | 22200
DCAF1 | 75.61 °C | 43200
DCAF1 | 35 °C | 9900
DCAF1 | 79.61 °C | 40200
WDR5 | 73.41 °C | 41700
DCAF1 | 74.21 °C | 44500
WDR5 | 79.01 °C | 62900
WDR5 | 94.21 °C | 49100
DCAF1 | 39.6 °C | 11200
DCAF1 | 26.2 °C | 7450
WDR5 | 65.41 °C | 16700

Some of these lines once more (sample 1):
target | assay | scale | remaining binding [%]
Serine/threonine-protein kinase TAO2 (TAOK2, Homo sapiens, UniProt Q9UL54) | binding, competition with immobilised ligand |  | 79
Ribosomal protein S6 kinase alpha-4, C-terminal kinase domain (RPS6KA4, Homo sapiens, UniProt O75676) | binding, competition with immobilised ligand |  | 74
Calcium/calmodulin-dependent protein kinase type II subunit delta (CAMK2D, Homo sapiens, UniProt Q13557) | binding, competition with immobilised ligand |  | 98
Serine/threonine-protein kinase 38 (STK38, Homo sapiens, UniProt Q15208) | binding, competition with immobilised ligand |  | 60
Serine/threonine-protein kinase tousled-like 2 (TLK2, Homo sapiens, UniProt Q86UE8) | binding, competition with immobilised ligand |  | 95
Eukaryotic translation initiation factor 2-alpha kinase 1 (EIF2AK1, Homo sapiens, UniProt Q9BQI3) | binding, competition with immobilised ligand |  | 91
Calcium/calmodulin-dependent protein kinase type 1B (PNCK, Homo sapiens, UniProt Q6P2M8) | kinase binding, KINOMEscan | reference: DMSO control | 57
Serine/threonine-protein kinase 26 (STK26, Homo sapiens, UniProt Q9P289) | binding, competition with immobilised ligand |  | 59
